Results collected from several papers.
A part holds a random share of what one study measured. Changes are numbered by the printed parent chain.

Study 1
Target: ABI1, truncated, D143A, DHFR fusion (Arabidopsis thaliana)
Technique: DHFR PCA, deep sequencing
Matrix: yeast
Setting: methotrexate growth selection, single substitutions
Added: (+)-ABA 0.39 µM
Relative to: wild-type fitted maximum
Reading: higher = stronger binding
Starting sequence: PYL1, truncated, DHFR fusion (Arabidopsis thaliana); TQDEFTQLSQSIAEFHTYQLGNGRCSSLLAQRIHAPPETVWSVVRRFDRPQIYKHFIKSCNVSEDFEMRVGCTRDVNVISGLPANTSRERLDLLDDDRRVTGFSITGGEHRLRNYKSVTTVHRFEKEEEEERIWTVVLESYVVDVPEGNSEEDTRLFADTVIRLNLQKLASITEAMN
Change | relative binding score [%]
L138F | 21.4
S150I | -9.42
I57L | 7.33
V136I | 41.8
K168G | 2.56
L20A | 54.3
R155I | 12.5
F157Y | 37.1
S150H | -3.27
A175C | 26.4
T160C | 4.12
D97Y | 15.5
D159T | -16.3
V121Y | -12.3

Study 2
Target: Histone acetyltransferase KAT6A, winged helix 1, GST fusion (KAT6A, Homo sapiens, UniProt Q92794, residues 1-85)
Technique: protein binding microarray
Molecule type: double-stranded DNA, one strand shown
Matrix: in vitro
Tested at: not given
Setting: 8-mer, flanks averaged, mean of 2 arrays, mostly near background
Relative to: not given
Reading: higher = stronger binding
Construct (chain): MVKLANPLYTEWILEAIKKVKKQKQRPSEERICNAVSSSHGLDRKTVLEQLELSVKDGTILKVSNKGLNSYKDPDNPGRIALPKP
Oligonucleotide | E-score
ACGATCTA | -0.27
GCCCAGTA | -0.188
GTCCAGCA | -0.313
CTCTAAAG | -0.229
CTGTCAAG | -0.208
CGAAGTAC | 0.0985
AAGCGCGG | 0.398
CCTACCAA | -0.207
CGCAAAGA | 0.077
AGTTTACG | 0.0666
GCGGTGGA | 0.0859
GGATGCAA | -0.215
CTCACAAG | -0.211
CCACACCA | -0.119
GACAGTAC | -0.135
AAGCTAAT | -0.128
CATTGCGC | 0.296
TAATGGTA | -0.0591
CATGTTGC | -0.0148
ACATTTCT | -0.131
CCCTTCAG | -0.12
AACGTGAC | -0.0246
CACACTAA | -0.075
AGTTCGTA | -0.0369
CCCCACAA | -0.159

Study 3
Target: CREB5, bZIP domain (human)
Technique: DHFR protein complementation
Matrix: yeast
Setting: single substitutions, most at no-binding floor
Relative to: wild-type JUN-FOS pair
Reading: higher = stronger binding
Starting sequence: JUN, bZIP domain (human); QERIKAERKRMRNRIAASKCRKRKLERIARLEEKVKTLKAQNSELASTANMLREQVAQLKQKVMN; partner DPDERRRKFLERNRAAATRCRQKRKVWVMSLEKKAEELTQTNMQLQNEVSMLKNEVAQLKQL
Change | binding fitness
K36V | -0.423 natural log
A40K | -0.128 natural log
R30W | -0.332 natural log
E33G | -0.651 natural log
E44T | -0.524 natural log
K36Y | -0.321 natural log
V35S | -1.33 natural log
V56D | -1.48 natural log
R30V | -0.143 natural log
V56Q | -1.25 natural log
A29N | -0.405 natural log
E32W | -0.812 natural log
K36M | -0.173 natural log
A57R | -0.327 natural log
A29D | -0.426 natural log
K39G | -0.46 natural log
K34G | -1.08 natural log
L45H | -1.41 natural log
E44D | -0.523 natural log
L59C | -1.29 natural log
A49D | -1.3 natural log
S47D | -0.168 natural log
T48F | -0.576 natural log
A40R | -0.277 natural log
Q41H | -0.46 natural log

Study 4
Target: CCND2, cyclin fold, Cln2 fusion (human)
Technique: yeast growth competition, sequencing
Matrix: yeast
Setting: weak parent motif
Relative to: not given
Reading: higher = stronger binding
Starting sequence: CDKN1B docking peptide (human); PSACRNLFGPVDH
Change | normalised enrichment score
FSACRNLFGPVDH [P1F] | 0.378
PSACINLFGPVDH [R5I] | 0.0921
PSACRNLFGPVDR [H13R] | 0.107
PSALRNLFGPVDH [C4L] | 0.357
PSACRNPFGPVDH [L7P] | -0.187
PSACRNLFGPVFH [D12F] | 0.266
PSACRWLFGPVDH [N6W] | 0.0415
PSACRNLFGPVHH [D12H] | 0.188
PSACRNAFGPVDH [L7A] | 0.117
PSACRNLFGPVDC [H13C] | 0.25
PSACRALFGPVDH [N6A] | 0.39
PSAQRNLFGPVDH [C4Q] | 0.0629
PSACRHLFGPVDH [N6H] | 0.0367
PSWCRNLFGPVDH [A3W] | 0.142
PSACRNLEGPVDH [F8E] | 0.0783
PSACRNLFGPVDS [H13S] | 0.212
PSADRNLFGPVDH [C4D] | 0.19
PSACRNLFGLVDH [P10L] | 0.15
PSACRNLFGSVDH [P10S] | 0.0766

Study 5
Target: Sal-like protein 4, full length isoform B (SALL4, Homo sapiens, UniProt Q9UJQ4-2, residues 1-616)
Technique: universal PBM
Molecule type: double-stranded DNA, one strand shown
Matrix: in vitro
Tested at: not given
Setting: 8-mer, flanks averaged, mean of replicates
Reading: higher = stronger binding
Oligonucleotide | E-score
ACGTTTCA | 0.0446
AAGTGACC | -0.176
CCTCAGTC | -0.218
AGTTCGGC | -0.0941
ACTATAGC | 0.025
AGCATAAC | 0.19
GAAGAGAC | 0.00928
GTGAGTTA | 0.0408
CGTTTGAG | -0.0759
CGCTCCGA | -0.211
CCGGCCAA | -0.243
CCGTGTGA | -0.179
GGACGTTA | 0.0322
CCCCACTA | -0.188
CACGAGGG | -0.282
GGCCCAAA | -0.29
CAAGCTAG | -0.11
TACTGCCA | 0.0493
ATACCCGG | -0.132

Study 6
Target: Interferon regulatory factor 5, full length, phosphomimetic (IRF5, Homo sapiens, UniProt Q13568-2, residues 1-514, K96S/S451D/S453D/S456D/S462D)
Technique: protein-binding microarray
Molecule type: double-stranded DNA, one strand shown
Matrix: in vitro
Tested at: 250 nM
Setting: 60-bp whole probe
Added: salmon DNA 0.4 mg/ml
Relative to: random background probes
Reading: higher = stronger binding
Shared flanks, not repeated: GCCTAGCAC … GTCTTGATTCGCTTGACGCTGCTG
Oligonucleotide | log fluorescence
TTAGGTATCGGCTATCGGTTAGTGCTA | 6.55 z-score
GAACTTCTGCATTACAGCTAGTGCTAG | 0.0264 z-score
TTAGGTTTAGACTTTCGGTTAGTGCTA | 9.13 z-score
TTAGAACTGAGTCTCGAGTAGTGCTAG | -0.0488 z-score
TTAGTTTTCAATTTTTGCATGTGCTAG | 1.87 z-score
GACGATCCCAGACTGGAGACGTGCTAG | -0.411 z-score
GACGTACTGGGGACTGGAGACGTGCTA | -0.419 z-score
TTAGGACTGGGTTTCGGATAGTGCTAG | 2.87 z-score
TTAGATCTCAGTAACGATTAGTGCTAG | 0.177 z-score
GACGGACTGCTACTGCTGAAGTGCTAG | -0.55 z-score
TCAGTTGTACTTTCTATCACTGTGCTA | 3.85 z-score
GACGGTTTCCTTCTCCTGGCGTGCTAG | 1.01 z-score
CTAATATTCATTTTATTCAAGTGCTAG | 0.887 z-score
GATAATTTATAAATAAAAAAGTGCTAG | 0.855 z-score
TCAAATACAAGTTTCTCACTGTGCTAG | 0.977 z-score
TCATGTATTTGTCCCTAACTGTGCTAG | 0.345 z-score

Study 7
Target: RNA binding protein fox-1 homolog 2, RRM domain, GST-SBP tag (RBFOX2, Homo sapiens, UniProt O43251-10, residues 100-194)
Technique: RNA Bind-n-Seq
Molecule type: RNA
Matrix: in vitro
Tested at: 365 nM
Setting: natural RNA segment, single round, ends assumed
Relative to: no-protein control
Reading: higher = stronger binding
Shared flanks, not repeated: GGGAGUUCUACAGUCCGACGAUC … UGGAAUUCUCGGGUGCCAA
Residues (chain): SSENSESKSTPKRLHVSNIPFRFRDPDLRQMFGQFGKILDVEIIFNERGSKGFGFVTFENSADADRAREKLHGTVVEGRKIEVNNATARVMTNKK
Oligonucleotide | RBNS enrichment (R)
GGACUUGUAAGUCUGCAGGCUGGAGAAGUCAGACCCUUCCCGCCUGGCACUCCUUGCUUUCAUCACCUUGACUUCUUCCUCUCAGUAGUGCCAAUCUCUCUAGGACCCUU | 0.569
AGUGGACACAUUAGUAAUGGUUAUGGGAGUAAUACAGAGAAAGAGGUGAGUGGAGACUCAGCCCAGCUGCUCUUGAGCUUGGAUAGUUAUACAUUUUGGUGACUUCUGAC | 0.337
AGAGAGCCCAGAACACCUGGGCAAGUAGGCGGACUGGCAGCCUGGCUCUGGGCCCUCGUCCACCGGGCCAAGUGGAGCCCCGCUUCAAGCUCUCUGUUCAGCUCCGCGUU | 0.309
CUGUGCGACUGCUAAACUGCAGGUUUUUGUUGAAGGAACUAAAAGCAACUAGUUCACUCAUAGUCUACAGUUUUAUGUUCUUUUGGCUUAAAGUUAAAAGAAAAUACAGA | 0.401
CACCUGUAGCUCUUGUUGACCUGCCUGUUCACCUCAUGAGUGAAGCGUCUGCCUGGCAGUGGGCCAUGAACUGAGGGGUCUCUGUGUAGAGUAGAAGCUUCCUGUGCCUC | 1.38
UUCCAAGUCACCUGUGCUUUCUGGGACCAAAGAAUGGGCACCUGCUGGAGUCCGGGCAGAGCUUUCUCAGUUGUAUUGCUACUCCAGACCUCACCAUAGGUUGGGGUCCC | 0.98
UCUCUCUGCCCACUCGGGUCUGCAGACCUGGUUCCCACUGAGGCCCUUUGCAGGAUGGAACUACGGGGCUUACAGGAGCUUUUGUGUGCCUGGUAGAAACUAUUUCUGUU | 0.277
GCAGCCUUCCAUCUCCUGCACUGGCUGAGUCCAUUUACUUGUGUACUUGUUCUAGUGAGUGGUGGGACUGUACAUUUUUGAAUAGACCUCAAAAAUACUUCAUUCUGCUG | 0.557
GCAACGAGUUGAAUUCUAAUCCUCACAGGAUGGAUGCCAGUGUCGGCACUUUCUUAAUUAUGAGUAUUGAAAGGUGCUGUUUUCAGUCUCCACAUGUCUGCUGACAAGUU | 0.296
AUCCCCAGAGUUCCGUUAGUAAACUUACUUCAUAUGUCCCCUGUCUUCCUCCAUCUGAGAAGUGGCCCAUGUGCUUCAAGGCCCAGGAGGGAGAUCUGUCAGCUCAUUCU | 0.342
AGCCAAUGAUGGAGCCACAUGAAUGGCCCUGGAGCUGUGUGCCUUGUUCCUGUGGCCAGGAGUUUGGUGACUGAAUCAUUUAUGGGCUCCUUUAAUGGGCCCAUAAAAGC | 0.91
CCAUGGUACCUGCACACCUAAAACACUAGGCCACGCAUCUGAUCUGUAGUCACAUGACUAAGCCAAGAGGAAGGAGCAAGACUCAAGACAUGAUUGAUGGAUGUUAAAGU | 0.303

Single results of other studies
Substance | target | test | test system | conditions | scale | measurement | value
PhoQ, residues 284 288 289 292 302 303 AGGCYF | PhoP, residues 12 14 15 18 19 QWHVF (Escherichia coli, UniProt P23836) | Sort-seq, refers to: YFP reporter | E. coli | PhoQ-PhoP variant library, added: 10 µM Mg2+ | relative to: high Mg2+ state, higher = stronger signaling | fold induction | 13.1

For quick reference, copied from above (study 2):
Oligonucleotide | E-score
CATGTTGC | -0.0148
GCCCAGTA | -0.188
CTGTCAAG | -0.208
ACATTTCT | -0.131
GTCCAGCA | -0.313
CCCTTCAG | -0.12
CCTACCAA | -0.207
ACGATCTA | -0.27
